Published values pooled from the literature.
Organism: Pseudomonas aeruginosa

Compound = N=C(N)NCCC[C@H](NC(=O)[C@H](Cc1c[nH]c2ccccc12)NC(=O)[C@@H](N)CCCNC(=N)N)C(=O)N[C@@H](Cc1c[nH]c2ccccc12)C(=O)N[C@@H](CCC(N)=O)C(=O)N[C@@H](Cc1ccccc1)C(=O)N[C@@H](CCC(N)=O)C(=O)N[C@@H](Cc1ccccc1)C(=O)N[C@@H](CCCCN)C(N)=O; test = broth microdilution, optical density; MIC = 39 µM
Compound = CC[C@H](C)[C@H](N)C(=O)N[C@@H](CC(C)C)C(=O)NCC(=O)N[C@H](CCCCN)C(=O)N[C@H](C(=O)N[C@@H](Cc1c[nH]c2ccccc12)C(=O)N[C@@H](CCCCN)C(=O)NCC(=O)N[C@H](C(=O)N[C@@H](CCCCN)C(=O)N[C@@H](CC(=O)O)C(=O)N[C@H](C(=O)N[C@@H](CC(C)C)C(N)=O)[C@@H](C)CC)[C@@H](C)CC)[C@@H](C)CC; test = broth microdilution; system = ATCC BAA-427, Mueller-Hinton broth; conditions = 16 h, 37 °C; MIC = 50 µM
Compound = CC[C@H](C)CCCCC(=O)N[C@@H](CCN)C(=O)N[C@H](C(=O)N[C@@H](CCN)C(=O)N[C@H]1CCNC(=O)[C@H]([C@@H](C)O)NC(=O)[C@H](CCN)NC(=O)[C@H](CCN)NC(=O)[C@H](CC(C)C)NC(=O)[C@@H](Cc2ccccc2)NC(=O)[C@H](CCN)NC1=O)[C@@H](C)O; test = broth microdilution; system = ATCC 27853; conditions = 24 h, 37 °C; MIC = 2 µg/mL
Compound = CC(C)(C)Oc1ccc(CC2NC(=O)C(C(=O)NC(C(=O)NC3C(=O)N4C3SC(C)(C)C4C(=O)O)c3ccccc3)=C2O)cc1 (centres unmarked); system = fpvB mutant; MIC = 25 µg/mL
Compound = C[C@@H](O)[C@H]1C(=O)N2C(C(=O)O)=C(S[C@@H]3CN[C@H](C(=O)N(C)C)C3)[C@H](C)[C@H]12; system = 1188712, multidrug-resistant; MIC = 8 µg/mL
Compound = CC[C@H](C)[C@H](NC(=O)[C@H](CC(C)C)NC(=O)[C@H](CC(C)C)NC(=O)[C@H](CC(C)C)NC(=O)[C@@H](NC(=O)[C@@H](NC(=O)[C@H](CCCCN)NC(=O)[C@H](CCCCN)NC(=O)[C@H](CCCCN)NC(=O)[C@H](CCCCN)NC(=O)[C@H](CC(C)C)NC(=O)[C@H](CCCNC(=N)N)NC(=O)[C@H](CO)NC(=O)[C@@H](N)CO)[C@@H](C)CC)C(C)C)C(=O)N[C@@H](CO)C(=O)N[C@@H](CCCCN)C(=O)N[C@@H](CCCCN)C(=O)N[C@@H](CCCCN)C(=O)N[C@@H](CCCCN)C(N)=O; test = broth microdilution; system = ATCC 27853; conditions = highest value reported; MIC = 32 µM
Compound = CC1(C)SC2C(NC(=O)C(NC(=O)C3=C(O)CN(c4ccccc4)C3=O)c3ccccc3)C(=O)N2C1C(=O)O (centres unmarked); system = pvdS mutant; MIC = 50 µg/mL
Compound = CC[C@H](C)[C@H](NC(=O)[C@H](CCCCN)NC(=O)[C@H](Cc1c[nH]c2ccccc12)NC(=O)[C@H](Cc1c[nH]c2ccccc12)NC(=O)[C@H](CCCCN)NC(=O)[C@H](CCCCN)NC(=O)[C@H](CCCCN)NC(=O)[C@H](Cc1c[nH]c2ccccc12)NC(=O)[C@H](CCCCN)NC(=O)[C@H](CCCCN)NC(=O)[C@H](Cc1c[nH]c2ccccc12)NC(=O)[C@H](CCCCN)NC(=O)[C@H](CCCCN)NC(=O)[C@@H](NC(=O)[C@@H](NC(=O)[C@H](CCCCN)NC(=O)[C@@H](N)CCCNC(=N)N)[C@@H](C)CC)[C@@H](C)CC)C(=O)N[C@@H](Cc1c[nH]c2ccccc12)C(=O)N[C@@H](Cc1c[nH]c2ccccc12)C(=O)N[C@@H](CCCCN)C(=O)NCCOCCOCC(N)=O; test = broth microdilution; system = 01; MIC = 2.2 µg/mL
Compound = CC[C@H](C)[C@H](NC(=O)CNC(=O)[C@H](CC(=O)O)NC(=O)[C@H](C)NC(=O)[C@@H](NC(=O)[C@H](CC(N)=O)NC(=O)[C@H](CCCNC(=N)N)NC(=O)CNC(=O)[C@@H](NC(=O)[C@H](CCCCN)NC(=O)[C@H](CCC(=O)O)NC(=O)[C@@H](NC(=O)[C@H](CCCCN)NC(=O)[C@H](CCCCN)NC(=O)[C@H](Cc1ccccc1)NC(=O)[C@@H](NC(=O)[C@H](CCCCN)NC(=O)[C@H](Cc1c[nH]c2ccccc12)NC(=O)[C@@H](N)CCCNC(=N)N)[C@@H](C)CC)[C@@H](C)CC)C(C)C)C(C)C)C(=O)N[C@H](C(=O)N[C@@H](CCCCN)C(=O)N[C@@H](C)C(=O)NCC(=O)N1CCC[C@H]1C(=O)N[C@@H](C)C(=O)N[C@H](C(=O)N[C@@H](C)C(=O)N[C@H](C(=O)N[C@H](C(=O)NCC(=O)N[C@@H](CCC(N)=O)C(=O)N[C@@H](C)C(=O)N[C@@H](C)C(=O)N[C@H](C(=O)N[C@H](C(=O)N[C@H](C(=O)N[C@@H](CCCCN)C(N)=O)C(C)C)C(C)C)[C@@H](C)O)C(C)C)C(C)C)C(C)C)[C@@H](C)CC; system = KCCM 11328, Mueller-Hinton broth; conditions = 16 h, 37 °C; scale = growth inhibition over 99%; MIC = 16 µM
Compound = CC1(C)SC2C(NC(=O)C(NC(=O)C3=C(O)C(Cc4ccccc4)NC3=O)c3ccccc3)C(=O)N2C1C(=O)O (centres unmarked); system = fptA mutant; MIC = 12.5 µg/mL
Compound = CC[C@H](C)[C@H](NC(=O)[C@H](CC(C)C)NC(=O)[C@H](CCCNC(=N)N)NC(=O)[C@@H](N)CCCNC(=N)N)C(=O)N[C@@H](CC(C)C)C(=O)N[C@H](C(=O)N[C@@H](CCCCN)C(=O)N[C@H](C(=O)NCC(=O)N1CCC[C@H]1C(=O)N[C@H](C(=O)N[C@H](C(=O)N[C@@H](Cc1ccc(O)cc1)C(=O)N[C@@H](CCCCN)C(=O)N[C@@H](Cc1ccc(O)cc1)C(=O)N[C@@H](Cc1ccccc1)C(=O)N[C@@H](CCCCN)C(=O)N[C@@H](CCCCN)C(=O)N[C@@H](CCC(N)=O)C(=O)N[C@@H](CC(C)C)C(=O)N[C@@H](CCCCN)C(=O)N[C@@H](CCCCN)C(=O)N[C@@H](CC(C)C)C(N)=O)[C@@H](C)CC)[C@@H](C)CC)[C@@H](C)O)[C@@H](C)O; system = KCTC 1637, Mueller-Hinton broth; conditions = 24 h; MIC = 4 µM
Compound = CC[C@H](C)[C@H](NC(=O)[C@@H](NC(=O)[C@H](Cc1ccccc1)NC(=O)CNC(=O)[C@H](CCC(N)=O)NC(=O)[C@H](CCCCN)NC(=O)[C@H](C)N)C(C)C)C(=O)N[C@@H](Cc1ccc(O)cc1)C(=O)N[C@@H](CCCNC(=N)N)C(=O)N[C@H](C(=O)N[C@@H](CCCNC(=N)N)C(=O)N[C@H](C(=O)N[C@@H](CCCNC(=N)N)C(=O)N[C@@H](CCCNC(=N)N)C(=O)NCC(=O)N[C@@H](CC(N)=O)C(=O)N[C@@H](CCCNC(=N)N)C(=O)N[C@@H](CCCCN)C(N)=O)C(C)C)C(C)C; test = broth dilution; system = ATCC 27853; MIC = > 100 µM
Compound = CC1(C)S[C@@H]2[C@H](NC(=O)[C@H](N)c3ccccc3)C(=O)N2[C@H]1C(=O)O; system = fpvB mutant; MIC = > 200 µg/mL
Compound = CC[C@H](C)[C@H](NC(=O)CNC(=O)[C@H](CC(=O)O)NC(=O)[C@H](CCCNC(=N)N)NC(=O)[C@@H](NC(=O)[C@H](CC(N)=O)NC(=O)[C@H](CCCNC(=N)N)NC(=O)CNC(=O)[C@@H](NC(=O)[C@H](CCC(=O)O)NC(=O)[C@H](CCC(=O)O)NC(=O)[C@@H](NC(=O)[C@H](CCCCN)NC(=O)[C@H](CCCCN)NC(=O)[C@H](Cc1ccccc1)NC(=O)[C@@H](NC(=O)[C@H](CCCCN)NC(=O)[C@H](Cc1c[nH]c2ccccc12)NC(=O)[C@@H](N)CCCNC(=N)N)[C@@H](C)CC)[C@@H](C)CC)C(C)C)C(C)C)C(=O)N[C@H](C(=O)N[C@@H](CCCCN)C(=O)N[C@@H](C)C(=O)NCC(=O)N1CCC[C@H]1C(=O)N[C@@H](C)C(=O)N[C@H](C(=O)N[C@@H](C)C(=O)N[C@H](C(=O)N[C@H](C(=O)NCC(=O)N[C@@H](CCC(N)=O)C(=O)N[C@@H](C)C(=O)N[C@@H](C)C(=O)N[C@H](C(=O)N[C@H](C(=O)N[C@H](C(=O)N[C@@H](CCCCN)C(N)=O)C(C)C)C(C)C)[C@@H](C)O)C(C)C)C(C)C)C(C)C)[C@@H](C)CC; system = KCCM 11328, Mueller-Hinton broth; conditions = 16 h, 37 °C; scale = growth inhibition over 99%; MIC = 32 µM
